Measurements pooled from the literature.
Protocols differ between the studies behind these lines. Values joined by “and” are separate records of one study, mostly repeats; a detail may differ. Numbers after ± are the reported error.
DNA dC->dU-editing enzyme APOBEC-3B C-terminal domain: DNA dC->dU-editing enzyme APOBEC-3B, C-terminal domain (Homo sapiens, UniProt Q9UH17)
Sequence of UniProt Q9UH17 (whole entry, looked up): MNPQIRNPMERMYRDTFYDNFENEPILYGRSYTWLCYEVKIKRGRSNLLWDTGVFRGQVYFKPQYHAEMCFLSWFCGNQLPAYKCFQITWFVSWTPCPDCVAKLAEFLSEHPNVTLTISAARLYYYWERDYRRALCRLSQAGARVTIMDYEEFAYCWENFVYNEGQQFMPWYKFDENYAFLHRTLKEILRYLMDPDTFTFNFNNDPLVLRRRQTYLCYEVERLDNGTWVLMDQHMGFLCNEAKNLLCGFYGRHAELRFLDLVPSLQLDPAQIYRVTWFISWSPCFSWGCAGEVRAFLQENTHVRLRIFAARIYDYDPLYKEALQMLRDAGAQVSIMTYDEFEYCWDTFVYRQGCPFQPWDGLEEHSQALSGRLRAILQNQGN
RAD51: DNA repair protein RAD51 homolog 1 (RAD51, Homo sapiens, UniProt Q06609)
Sequence of UniProt Q06609 (whole entry, looked up): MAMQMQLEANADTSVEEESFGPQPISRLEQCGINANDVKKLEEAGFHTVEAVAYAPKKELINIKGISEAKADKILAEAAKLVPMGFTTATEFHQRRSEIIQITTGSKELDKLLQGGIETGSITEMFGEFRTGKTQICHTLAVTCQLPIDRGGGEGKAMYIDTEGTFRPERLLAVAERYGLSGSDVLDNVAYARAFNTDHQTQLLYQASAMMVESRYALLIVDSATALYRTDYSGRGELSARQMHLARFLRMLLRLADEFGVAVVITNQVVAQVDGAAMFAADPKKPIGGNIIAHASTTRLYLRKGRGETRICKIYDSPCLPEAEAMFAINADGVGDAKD
IL1R1: Interleukin-1 receptor type 1 (IL1R1, Homo sapiens, UniProt P14778)
Sequence of UniProt P14778 (whole entry, looked up): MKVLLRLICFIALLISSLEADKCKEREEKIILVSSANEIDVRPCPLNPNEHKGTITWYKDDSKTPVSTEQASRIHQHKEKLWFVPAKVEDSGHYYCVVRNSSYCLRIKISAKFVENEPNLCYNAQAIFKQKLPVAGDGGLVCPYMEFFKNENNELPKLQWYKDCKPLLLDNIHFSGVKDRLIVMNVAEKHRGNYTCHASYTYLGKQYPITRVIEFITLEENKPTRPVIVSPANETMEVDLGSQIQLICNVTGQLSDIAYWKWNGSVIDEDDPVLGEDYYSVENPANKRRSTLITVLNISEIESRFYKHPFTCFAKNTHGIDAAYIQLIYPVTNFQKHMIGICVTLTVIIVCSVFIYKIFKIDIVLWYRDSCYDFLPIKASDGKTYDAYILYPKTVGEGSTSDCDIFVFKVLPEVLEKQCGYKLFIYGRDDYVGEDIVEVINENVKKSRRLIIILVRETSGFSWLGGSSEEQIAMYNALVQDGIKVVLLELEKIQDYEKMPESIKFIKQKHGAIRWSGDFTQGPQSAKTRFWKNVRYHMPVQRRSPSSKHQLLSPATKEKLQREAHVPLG
TDP1: Tyrosyl-DNA phosphodiesterase 1 (TDP1, Homo sapiens, UniProt Q9NUW8)
Sequence of UniProt Q9NUW8 (whole entry, looked up): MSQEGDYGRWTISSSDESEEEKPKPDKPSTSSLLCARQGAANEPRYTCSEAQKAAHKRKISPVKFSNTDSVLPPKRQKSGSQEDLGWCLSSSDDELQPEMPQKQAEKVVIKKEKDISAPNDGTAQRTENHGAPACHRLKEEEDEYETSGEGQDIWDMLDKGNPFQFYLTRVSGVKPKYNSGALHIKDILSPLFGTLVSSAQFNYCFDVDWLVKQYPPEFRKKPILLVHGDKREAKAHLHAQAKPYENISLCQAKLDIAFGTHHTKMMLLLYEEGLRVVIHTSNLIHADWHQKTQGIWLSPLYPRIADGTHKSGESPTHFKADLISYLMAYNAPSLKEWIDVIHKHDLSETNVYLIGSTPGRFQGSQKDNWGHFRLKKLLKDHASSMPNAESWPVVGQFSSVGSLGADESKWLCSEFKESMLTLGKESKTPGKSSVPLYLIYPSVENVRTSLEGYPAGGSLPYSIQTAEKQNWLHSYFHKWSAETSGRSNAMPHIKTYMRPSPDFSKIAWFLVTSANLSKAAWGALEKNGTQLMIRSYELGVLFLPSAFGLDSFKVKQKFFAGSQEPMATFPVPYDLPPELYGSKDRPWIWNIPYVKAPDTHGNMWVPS
MAOB: Amine oxidase [flavin-containing] B (MAOB, Homo sapiens, UniProt P27338)
Sequence of UniProt Q16539 (whole entry, looked up): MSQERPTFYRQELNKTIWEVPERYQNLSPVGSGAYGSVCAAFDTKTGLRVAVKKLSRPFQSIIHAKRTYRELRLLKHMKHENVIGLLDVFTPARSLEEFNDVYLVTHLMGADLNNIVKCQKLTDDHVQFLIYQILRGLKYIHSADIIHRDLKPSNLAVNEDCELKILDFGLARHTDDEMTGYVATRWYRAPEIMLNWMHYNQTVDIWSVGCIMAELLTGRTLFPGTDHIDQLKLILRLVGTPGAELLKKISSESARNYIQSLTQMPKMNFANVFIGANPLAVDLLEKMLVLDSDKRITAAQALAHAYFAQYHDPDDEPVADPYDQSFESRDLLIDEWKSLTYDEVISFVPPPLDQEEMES
Sequence of UniProt P27338 (whole entry, looked up): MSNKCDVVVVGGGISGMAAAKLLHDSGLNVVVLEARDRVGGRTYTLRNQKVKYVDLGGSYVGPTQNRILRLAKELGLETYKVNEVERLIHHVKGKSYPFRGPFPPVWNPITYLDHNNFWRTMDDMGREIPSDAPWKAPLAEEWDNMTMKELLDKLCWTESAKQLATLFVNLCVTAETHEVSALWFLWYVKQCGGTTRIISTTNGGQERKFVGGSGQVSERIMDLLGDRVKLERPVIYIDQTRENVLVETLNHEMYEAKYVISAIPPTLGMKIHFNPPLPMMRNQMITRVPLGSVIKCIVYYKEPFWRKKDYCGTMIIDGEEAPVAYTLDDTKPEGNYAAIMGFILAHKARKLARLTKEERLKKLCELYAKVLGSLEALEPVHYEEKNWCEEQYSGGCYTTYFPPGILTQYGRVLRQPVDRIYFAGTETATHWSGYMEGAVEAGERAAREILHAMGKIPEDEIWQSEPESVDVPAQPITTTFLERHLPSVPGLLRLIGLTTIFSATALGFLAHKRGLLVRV
Sequence of UniProt P45983 (whole entry, looked up): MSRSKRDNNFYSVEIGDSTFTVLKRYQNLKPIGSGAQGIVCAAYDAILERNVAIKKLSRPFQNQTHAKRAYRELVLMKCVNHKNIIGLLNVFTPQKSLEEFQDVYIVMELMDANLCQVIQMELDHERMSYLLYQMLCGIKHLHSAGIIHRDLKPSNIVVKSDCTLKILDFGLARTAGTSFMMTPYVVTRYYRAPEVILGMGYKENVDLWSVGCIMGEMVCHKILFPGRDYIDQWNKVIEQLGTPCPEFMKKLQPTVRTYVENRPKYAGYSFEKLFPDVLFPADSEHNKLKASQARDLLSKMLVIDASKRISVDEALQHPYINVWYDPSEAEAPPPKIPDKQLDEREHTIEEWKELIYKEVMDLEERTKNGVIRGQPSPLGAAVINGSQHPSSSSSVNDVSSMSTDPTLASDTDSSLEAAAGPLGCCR
Sequence of UniProt Q5TCX8 (whole entry, looked up): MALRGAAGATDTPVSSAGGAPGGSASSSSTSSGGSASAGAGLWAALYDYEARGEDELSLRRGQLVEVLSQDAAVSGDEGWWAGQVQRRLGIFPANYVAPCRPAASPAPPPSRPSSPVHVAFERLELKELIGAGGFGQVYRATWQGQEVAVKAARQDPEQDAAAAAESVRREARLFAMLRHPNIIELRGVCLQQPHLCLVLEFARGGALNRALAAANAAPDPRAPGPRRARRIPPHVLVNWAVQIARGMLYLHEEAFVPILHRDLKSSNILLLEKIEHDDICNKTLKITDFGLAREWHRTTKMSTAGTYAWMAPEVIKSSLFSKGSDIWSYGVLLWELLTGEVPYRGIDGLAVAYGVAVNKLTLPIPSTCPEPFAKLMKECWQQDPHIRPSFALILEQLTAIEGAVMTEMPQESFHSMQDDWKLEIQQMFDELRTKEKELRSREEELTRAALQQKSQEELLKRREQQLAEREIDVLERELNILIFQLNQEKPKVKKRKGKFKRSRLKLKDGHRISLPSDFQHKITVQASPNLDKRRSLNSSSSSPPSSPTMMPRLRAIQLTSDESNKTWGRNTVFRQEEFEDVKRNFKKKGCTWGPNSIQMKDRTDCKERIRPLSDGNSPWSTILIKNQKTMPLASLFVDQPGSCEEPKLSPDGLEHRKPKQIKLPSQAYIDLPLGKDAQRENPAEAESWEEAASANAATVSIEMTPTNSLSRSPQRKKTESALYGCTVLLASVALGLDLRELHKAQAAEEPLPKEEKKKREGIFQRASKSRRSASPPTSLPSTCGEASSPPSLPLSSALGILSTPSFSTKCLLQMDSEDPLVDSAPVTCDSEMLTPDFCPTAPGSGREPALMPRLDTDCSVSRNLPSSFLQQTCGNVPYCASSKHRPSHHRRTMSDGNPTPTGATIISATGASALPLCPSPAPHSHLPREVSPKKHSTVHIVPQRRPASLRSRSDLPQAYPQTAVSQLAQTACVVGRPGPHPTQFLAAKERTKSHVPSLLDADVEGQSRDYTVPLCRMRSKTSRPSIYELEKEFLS
Sequence of UniProt Q9Z1M0 (whole entry, unmodified, looked up): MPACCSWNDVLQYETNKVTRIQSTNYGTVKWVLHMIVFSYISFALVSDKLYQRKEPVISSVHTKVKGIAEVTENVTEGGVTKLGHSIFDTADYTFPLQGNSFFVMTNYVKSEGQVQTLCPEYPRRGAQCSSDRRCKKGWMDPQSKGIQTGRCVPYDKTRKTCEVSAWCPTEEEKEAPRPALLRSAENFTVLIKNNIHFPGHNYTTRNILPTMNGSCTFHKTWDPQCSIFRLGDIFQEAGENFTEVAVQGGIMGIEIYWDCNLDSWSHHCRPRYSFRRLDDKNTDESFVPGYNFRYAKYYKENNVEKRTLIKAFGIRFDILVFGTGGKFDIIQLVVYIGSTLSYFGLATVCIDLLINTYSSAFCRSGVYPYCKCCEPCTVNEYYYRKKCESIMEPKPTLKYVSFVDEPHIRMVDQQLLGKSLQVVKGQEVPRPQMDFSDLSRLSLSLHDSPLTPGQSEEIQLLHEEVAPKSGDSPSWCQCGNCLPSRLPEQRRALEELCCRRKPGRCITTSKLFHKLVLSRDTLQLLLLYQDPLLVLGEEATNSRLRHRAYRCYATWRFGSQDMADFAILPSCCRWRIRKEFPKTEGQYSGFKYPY

With `Cc1cc(C(=O)Nc2nc3cccc(C)c3n2[C@H]2CCCCN(C(=O)/C=C/CN(C)C)C2)ccn1` the remaining activity was 111% (CDC2-like kinase 1 (Trypanosoma brucei brucei, UniProt Q382U0); kinase activity, ADP-Glo; 0.01953 µM).
`O=C(O)c1cc(-c2ccc(CN3CCCC(CO)C3)o2)ccc1Cl` (stereo not drawn) gave a remaining activity of 23.8% (DNA dC->dU-editing enzyme APOBEC-3B C-terminal domain; deaminase activity, inhibitor; 500 µM).
`Cn1nc(-c2ccc(Cl)cc2)c2cc(C(=O)NCCCN3CCCCCC3)sc21` gave a remaining activity of 48.6 ± 2% (RAD51; D-loop formation, inhibitor; 10 x RAD52 pairing IC50, 4% DMSO, with: 1 mM calcium chloride; relative to: DMSO control).
With `Nc1ncc(-c2cc(-c3cnn(CC(F)(F)F)c3)ncc2F)nc1C(=O)NC1CNCC(F)C1` (stereo not drawn) the remaining activity was 97.6% (Mitogen-activated protein kinase kinase kinase 21 (MAP3K21, Homo sapiens, UniProt Q5TCX8); enzyme activity; 1 µM; relative to: DMSO control).
For `N#Cc1cnc2sc(C(=O)O)cc2c1N1CCc2[nH]nc(C(=O)N[C@@H](CC(=O)NCCOCCN3CCOCC3)c3cccc(Br)c3)c2C1`, the remaining activity was 92% (IL1R1; SEAP reporter gene, inhibitor; HEK-Blue reporter cells; 0.046 µM, 6 h, with: IL-1β 5 ng/mL).
`O=C(c1cccc(-c2cc(NCCO)ncn2)c1)N1CCCC1c1ccccc1` (stereo not drawn) gave a remaining activity of 7.1% (DNA dC->dU-editing enzyme APOBEC-3B C-terminal domain; deaminase activity, inhibitor; 500 µM).
For `CC(C)[C@@H]1NC(=O)[C@H](Cc2ccccc2)NC(=O)CSC[C@@H](C(N)=O)NC(=O)[C@H](CCC(=O)O)NC(=O)[C@H](CO)NC(=O)[C@H](Cc2c[nH]c3ccccc23)NC(=O)[C@H](C(C)C)NC(=O)[C@H](C(C)C)NC(=O)[C@H](Cc2ccc(O)cc2)NC(=O)[C@H](CC(=O)O)NC(=O)[C@H](Cc2c[nH]c3ccccc23)NC(=O)[C@H](Cc2ccc(O)cc2)NC(=O)[C@H](Cc2c[nH]c3ccccc23)NC(=O)[C@H](CCC(=O)O)NC1=O`, the remaining activity was 94.1% (IL1R1; IL-8 release, antagonist; A-431; 4 µM, 18 h, with: IL-1β 5 ng/mL; relative to: untreated).
`COc1ccc(-c2ccc(C(=O)N(C)CCO)cc2)c(OC)c1` gave a remaining activity of 18.1% (DNA dC->dU-editing enzyme APOBEC-3B C-terminal domain; deaminase activity, inhibitor; 500 µM).
The inhibition of `O=C(O)c1ccc(Nc2c(-c3ccc(CON=Cc4cnc(O)c(Cl)c4)cc3)nc3cc(-c4ccccc4)ccn23)cc1` (mixture of isomers) is reported as 99.7% (TDP1; enzyme activity, inhibitor; 100 µM, unpurified compound).
With `CCOc1ccc(C(=O)/C=C/c2ccc(C(C)C)cc2)cc1` the remaining activity was 37.6% (MAOB; enzyme activity, inhibitor; 1 µM).
For `CCC1Sc2ccc(S(=O)(=O)CCC(=O)Nc3cccc4ccccc34)cc2NC1=O` (stereo not drawn), the remaining activity was 89.8% (P2X purinoceptor 7 (P2rx7, Mus musculus, UniProt Q9Z1M0, A312V); ATP-evoked current, whole-cell patch clamp; 3 µM; relative to: no compound).
`COc1ccccc1-c1ccncc1C(=O)Nc1nnc(OCc2ccc(Cl)cc2)s1` has a remaining activity of 40% (DNA polymerase theta, helicase domain (POLQ, Homo sapiens, UniProt O75417); ATPase activity, ADP-Glo; 0.12 µM, with: ATP 600 µM).
`C[C@](C(=O)NC1CCOCC1)(c1cncnc1)N(C(=O)[C@H](F)Cl)c1ccc(OC(F)(F)Cl)cc1` has a remaining activity of 102% (Caspase-6 (CASP6, Homo sapiens, UniProt P55212); enzyme activity, inhibitor; 10 µM).
`Cc1cnc2nc1Nc1cccc(c1)COC/C=C/COCc1cc(ccc1OCCN1CCOCC1)N2` has a remaining activity of 58% (Tyrosine-protein kinase JAK1 (JAK1, Homo sapiens, UniProt P23458); concentration not given; relative to: untreated control).
For `O=C(O)c1ccc(Nc2c(-c3ccc(CON=Cc4cccc5cccnc45)cc3)nc3cc(-c4ccccc4)ccn23)cc1`, the inhibition was 32.5% (TDP1; enzyme activity, inhibitor; 100 µM).
For `COc1ccc(-c2nc(C(=O)NCCCN3CCOCC3)cc3c2[nH]c2ccccc23)cc1OC`, the remaining activity was 93.7 ± 2.1% (RAD51; D-loop formation, inhibitor; 10 x RAD52 pairing IC50, 4% DMSO, with: 1 mM calcium chloride; relative to: DMSO control).
For `CC(C)c1ccc(/C=C/C(=O)c2ccc(F)cc2)cc1`, the remaining activity was 77.3% (MAOB; enzyme activity, inhibitor; about 2 × IC50, 30 min preincubation, after dialysis).
For `NC(=O)c1ccc2nc(CN3CCCC3c3ccco3)cc(O)c2c1` (stereo not drawn), the remaining activity was 15% (DNA dC->dU-editing enzyme APOBEC-3B C-terminal domain; deaminase activity, inhibitor; 500 µM).
With `C=C1C[C@@]2(C(=O)OC)C=C(C(=O)Nc3cccc(C(=O)Nc4ccc(Nc5nccc(-c6cccnc6)n5)c(C)c4)c3)C(=O)[C@@H]1C2` the remaining activity was 0.907 (Mitogen-activated protein kinase 8 (MAPK8, Homo sapiens, UniProt P45983); kinase activity, inhibitor; 0.006774 µM, unit not given, with: 10 mM glutathione; relative to: no inhibitor).
`CN1CCN(CCCNC(=O)c2cc3c(-c4ccc(Cl)cc4)nn(C)c3s2)CC1` gave a remaining activity of 38.4 ± 6.4% (RAD51; D-loop formation, inhibitor; 10 x RAD52 pairing IC50, 4% DMSO, with: 1 mM calcium chloride; relative to: DMSO control).
With `CC(C)c1ccc(/C=C/C(=O)c2cccc(C(F)(F)F)c2)cc1` the remaining activity was 65.1% (MAOB; enzyme activity, inhibitor; 1 µM).
`COc1ccc(OC)c(Nc2nc(NCCO)c3ccccc3n2)c1` has a remaining activity of 75.1 ± 4.8% (RAD51; D-loop formation, inhibitor; 10 x RAD52 pairing IC50, 4% DMSO, with: 1 mM calcium chloride; relative to: DMSO control).
For `OCC1CCCN(CCNc2cc(-c3ccccc3)nc3ccnn23)C1` (stereo not drawn), the remaining activity was 12.2% (DNA dC->dU-editing enzyme APOBEC-3B C-terminal domain; deaminase activity, inhibitor; 500 µM).
`Cc1ccc(C(=O)c2oc3ccc(Cl)cc3c2NC(=O)CN2CCN(C)CC2)cc1` has a remaining activity of 92.5 ± 5% (RAD51; D-loop formation, inhibitor; 10 x RAD52 pairing IC50, 4% DMSO, with: 1 mM calcium chloride; relative to: DMSO control).
For `COC(=O)[C@@]1(C)C=C(C(=O)Nc2cccc(C(=O)Nc3ccc(Nc4nccc(-c5cccnc5)n4)c(C)c3)c2)C(=O)CC1`, the remaining activity was 0.337 and 0.371 and 0.46 (Mitogen-activated protein kinase 14 (MAPK14, Homo sapiens, UniProt Q16539); enzyme activity, inhibitor; 44.44 µM, unit not given; relative to: vehicle).
For `CCCN(CCC)CCCNC(=S)Nc1ccc2nc(N3CCN(C)CC3)cc(C)c2c1`, the remaining activity was 110.7 ± 0.2% (RAD51; D-loop formation, inhibitor; 10 x RAD52 pairing IC50, 4% DMSO, with: 1 mM calcium chloride; relative to: DMSO control).
`CC(C)[C@@H]1NC(=O)[C@H](Cc2ccccc2)NC(=O)CSC[C@@H](C(N)=O)NC(=O)[C@H](CCC(=O)O)NC(=O)[C@H](CO)NC(=O)[C@H](Cc2c[nH]c3cccc(Cl)c23)NC(=O)[C@H](C2CCCCC2)NC(=O)[C@H](C(C)C)NC(=O)[C@H](Cc2ccc(O)cc2)NC(=O)[C@H](CC(=O)O)NC(=O)[C@H](Cc2c[nH]c3ccccc23)NC(=O)[C@H](Cc2ccc(N)nc2)NC(=O)[C@H](Cc2c[nH]c3ccc(Cl)cc23)NC(=O)[C@H](CCC(=O)O)NC1=O` has a remaining activity of 13.2% (Interleukin-1 receptor-like 2 (IL1RL2, Homo sapiens, UniProt Q9HB29); reporter gene (SEAP), inhibitor, HEK-Blue IL-36R reporter; HEK-Blue IL-36R cells; 0.41 µM, 6 h, with: IL-36β 0.01 ng/mL).

For quick reference, copied from above:
For `NC(=O)c1ccc2nc(CN3CCCC3c3ccco3)cc(O)c2c1` (stereo not drawn), the remaining activity was 15% (DNA dC->dU-editing enzyme APOBEC-3B C-terminal domain; deaminase activity, inhibitor; 500 µM).
With `C=C1C[C@@]2(C(=O)OC)C=C(C(=O)Nc3cccc(C(=O)Nc4ccc(Nc5nccc(-c6cccnc6)n5)c(C)c4)c3)C(=O)[C@@H]1C2` the remaining activity was 0.907 (Mitogen-activated protein kinase 8 (MAPK8, Homo sapiens, UniProt P45983); kinase activity, inhibitor; 0.006774 µM, unit not given, with: 10 mM glutathione; relative to: no inhibitor).
`CN1CCN(CCCNC(=O)c2cc3c(-c4ccc(Cl)cc4)nn(C)c3s2)CC1` gave a remaining activity of 38.4 ± 6.4% (RAD51; D-loop formation, inhibitor; 10 x RAD52 pairing IC50, 4% DMSO, with: 1 mM calcium chloride; relative to: DMSO control).
With `CC(C)c1ccc(/C=C/C(=O)c2cccc(C(F)(F)F)c2)cc1` the remaining activity was 65.1% (MAOB; enzyme activity, inhibitor; 1 µM).
